Assay results from different studies.
Each numbered part is a random draw from the data of one study; scales do not carry over between parts. Changes are numbered by the printed parent chain.

Study 1
Target: Protein max, full length (MAX, Homo sapiens, UniProt P61244-2, residues 1-151)
Technique: protein-binding microarray
Form: double-stranded DNA, one strand shown
Sample: in vitro
Tested at: not given
Setting: k-mer, scored over probes, only values ≥0.25
Reading: higher = stronger binding
Quantity: E-score
Strand = ATGCTTGC; value = 0.255
Strand = ATCACCAC; value = 0.261
Strand = ATCGCGTG; value = 0.406
Strand = GCCTCCCC; value = 0.291
Strand = ACACGTGT; value = 0.496
Strand = ACATGAGT; value = 0.341

Study 2
Target: CCNA2, cyclin fold, Cln2 fusion (human)
Technique: yeast growth competition, sequencing
Sample: yeast
Setting: strong parent motif
Relative to: not given
Reading: higher = stronger binding
Quantity: normalised enrichment score
Starting sequence: CDKN1B docking peptide (human); PSACRNLFGPVDH; partner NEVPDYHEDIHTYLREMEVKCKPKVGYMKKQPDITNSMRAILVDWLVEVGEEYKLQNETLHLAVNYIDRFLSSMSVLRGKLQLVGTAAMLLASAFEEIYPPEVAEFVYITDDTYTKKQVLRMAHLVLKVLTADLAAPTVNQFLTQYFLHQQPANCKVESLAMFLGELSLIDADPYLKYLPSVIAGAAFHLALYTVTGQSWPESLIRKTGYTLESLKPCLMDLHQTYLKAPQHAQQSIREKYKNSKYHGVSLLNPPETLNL
Substitution = PSQCRNLFGPVDH [A3Q]; value = 0.835
Substitution = PMACRNLFGPVDH [S2M]; value = 2.39
Substitution = PSACGNLFGPVDH [R5G]; value = -0.203
Substitution = PSACRNLFGPGDH [V11G]; value = 3.51
Substitution = PSACRNGFGPVDH [L7G]; value = 0.486

Study 3
Target: RING finger protein unkempt homolog, zinc fingers 1-6, GST-SBP tag (UNK, Homo sapiens, UniProt Q9C0B0, residues 30-357)
UniProt Q9C0B0, sequence (30-357, looked up): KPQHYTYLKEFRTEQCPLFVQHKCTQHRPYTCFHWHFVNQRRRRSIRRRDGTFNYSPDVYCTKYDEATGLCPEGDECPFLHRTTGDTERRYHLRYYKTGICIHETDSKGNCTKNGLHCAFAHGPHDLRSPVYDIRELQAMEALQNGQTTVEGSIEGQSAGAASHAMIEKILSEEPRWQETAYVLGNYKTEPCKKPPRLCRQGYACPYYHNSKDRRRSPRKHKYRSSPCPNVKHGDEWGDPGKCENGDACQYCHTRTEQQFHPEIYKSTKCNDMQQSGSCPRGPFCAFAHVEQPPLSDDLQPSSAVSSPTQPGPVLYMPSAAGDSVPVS
Technique: RNA Bind-n-Seq
Form: RNA
Sample: in vitro
Tested at: not given
Setting: RNA with constant flanks, human and mouse sites, ends assumed
Relative to: input RNA pool
Reading: higher = stronger binding
Quantity: bound/input enrichment
Strand = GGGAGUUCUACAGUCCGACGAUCUAUUUAUAUUUAUUGACUCUUGAGUUGUUUUUGUAUAUUGGUUUUAUGAUGACGUUCGAGUAGUUCUGUAUUUGAAAGUGCCUUUGCAGCUCAGAACCACAGCAACUAUCACAAAUGACUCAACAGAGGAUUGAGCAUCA; value = 0.543 ratio
Strand = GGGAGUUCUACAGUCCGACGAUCUGCUCUUACUUGAUUUGCCAAAUGCCUCCUGCUUCUCGUUAUAGGACUGAGUGAGGUCCUCAUAGCUCUGUGCUCUGGGCAGCUCUGAGCUCUCAGCCCUGUUGCUUUCAAUGUCAGUCACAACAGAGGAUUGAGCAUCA; value = 0.265 ratio
Strand = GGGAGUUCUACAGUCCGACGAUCUUUAAGACUUUAUAUUGCUUUUCAAACAAAGAAAGCCCUAACCAAAACAAUACUACCCACUUAGAUAUUGCUGCAGUUCAAGGUUUUUCAGUCAUCUUGGACUUCUUGUAUUCUGGUAACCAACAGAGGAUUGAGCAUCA; value = 3 ratio
Strand = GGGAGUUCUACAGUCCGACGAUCAAGUUUGGACAUCAUGAAGAUGCUGCUUAUGUAUUGUGCCAAGAUGGAGAAAGAUGGCUACGGAAUGACUCCUCUUCUCUCAGCAAGUGUGACUGGUCACACUAAUAUUGUGGAUUUUCUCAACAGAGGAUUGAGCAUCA; value = 0.145 ratio
Strand = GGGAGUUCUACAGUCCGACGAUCAUGAAGGCUCGUUUAAAGGGAGCACAGACAGGUCGAAACCUCCUGAAGAAAAAAUCUGAUGCCUUAACUCUUCGAUUUCGACAGAUCCUAAAGAAGAUAAUAGAGACUAAAAUGUUGAUGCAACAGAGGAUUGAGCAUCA; value = 0.335 ratio
Strand = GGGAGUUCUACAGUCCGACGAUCCUGCUCACGCAAUACGAGCGCGAGAAGGCGCUGCGCAAACAGGCCGAGGAGAAAUUCAUCGAAUUUGAAGAUGCCUUGGAACAAGAGAAGAAAGAACUCCAGAUCCAGGUAGAACAUUAUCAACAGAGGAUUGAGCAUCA; value = 0.189 ratio

Further values, each from its own experiment
Substance = PhoQ, residues 284 288 289 292 302 303 SMMNNA; target = PhoP, residues 12 14 15 18 19 NHFRA (Escherichia coli, UniProt P23836); assay = Sort-seq, refers to: YFP reporter; test system = E. coli; conditions = PhoQ-PhoP variant library, with: 10 µM Mg2+; scale = relative to: high Mg2+ state, higher = stronger signaling; quantity = fold induction; value = 1.23

Repeated from above (study 1):
Strand = ATCACCAC; value = 0.261
